Experimental data gathered from unrelated publications.
Protocols differ between the studies behind these lines. Numbers after ± are the reported error. Non-standard residues stand in square brackets, D forms with d. No end group written: not given here.
PIM1: Serine/threonine-protein kinase pim-1 (PIM1, Homo sapiens, UniProt P11309)
Chain of UniProt P11309 (whole entry, looked up): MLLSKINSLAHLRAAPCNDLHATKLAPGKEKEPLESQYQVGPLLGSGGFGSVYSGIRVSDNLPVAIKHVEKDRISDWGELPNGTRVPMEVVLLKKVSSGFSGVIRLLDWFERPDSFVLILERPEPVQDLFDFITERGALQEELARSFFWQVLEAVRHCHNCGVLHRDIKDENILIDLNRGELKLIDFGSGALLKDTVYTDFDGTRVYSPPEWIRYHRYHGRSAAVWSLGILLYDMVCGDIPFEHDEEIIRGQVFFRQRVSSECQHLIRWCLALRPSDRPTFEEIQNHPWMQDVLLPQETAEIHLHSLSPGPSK
Chain of UniProt P05804 (whole entry, looked up): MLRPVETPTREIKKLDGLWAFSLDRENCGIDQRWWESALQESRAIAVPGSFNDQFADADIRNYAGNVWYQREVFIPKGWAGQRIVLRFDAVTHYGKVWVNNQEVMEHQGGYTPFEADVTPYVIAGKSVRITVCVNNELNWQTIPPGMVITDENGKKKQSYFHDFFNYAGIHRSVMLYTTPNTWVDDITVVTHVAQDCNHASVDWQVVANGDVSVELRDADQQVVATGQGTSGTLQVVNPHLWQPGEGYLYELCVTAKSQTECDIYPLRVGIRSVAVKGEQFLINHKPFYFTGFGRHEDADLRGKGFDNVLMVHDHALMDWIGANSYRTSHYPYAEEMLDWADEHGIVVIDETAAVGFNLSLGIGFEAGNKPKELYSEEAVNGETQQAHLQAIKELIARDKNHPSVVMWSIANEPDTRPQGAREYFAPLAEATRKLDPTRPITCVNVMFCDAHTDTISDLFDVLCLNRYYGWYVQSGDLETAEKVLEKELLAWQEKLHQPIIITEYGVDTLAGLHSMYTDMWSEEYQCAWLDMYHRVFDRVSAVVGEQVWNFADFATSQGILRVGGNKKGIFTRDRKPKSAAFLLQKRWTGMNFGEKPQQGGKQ
Chain of UniProt O95476 (whole entry, looked up): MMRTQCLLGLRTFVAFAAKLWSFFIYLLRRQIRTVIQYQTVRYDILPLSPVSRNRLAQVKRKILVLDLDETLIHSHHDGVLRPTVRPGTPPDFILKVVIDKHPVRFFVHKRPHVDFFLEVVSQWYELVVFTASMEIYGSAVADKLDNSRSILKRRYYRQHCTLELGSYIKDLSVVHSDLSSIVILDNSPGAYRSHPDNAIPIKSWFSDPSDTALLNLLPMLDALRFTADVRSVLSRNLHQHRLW
Chain of UniProt P19111 (whole entry, looked up): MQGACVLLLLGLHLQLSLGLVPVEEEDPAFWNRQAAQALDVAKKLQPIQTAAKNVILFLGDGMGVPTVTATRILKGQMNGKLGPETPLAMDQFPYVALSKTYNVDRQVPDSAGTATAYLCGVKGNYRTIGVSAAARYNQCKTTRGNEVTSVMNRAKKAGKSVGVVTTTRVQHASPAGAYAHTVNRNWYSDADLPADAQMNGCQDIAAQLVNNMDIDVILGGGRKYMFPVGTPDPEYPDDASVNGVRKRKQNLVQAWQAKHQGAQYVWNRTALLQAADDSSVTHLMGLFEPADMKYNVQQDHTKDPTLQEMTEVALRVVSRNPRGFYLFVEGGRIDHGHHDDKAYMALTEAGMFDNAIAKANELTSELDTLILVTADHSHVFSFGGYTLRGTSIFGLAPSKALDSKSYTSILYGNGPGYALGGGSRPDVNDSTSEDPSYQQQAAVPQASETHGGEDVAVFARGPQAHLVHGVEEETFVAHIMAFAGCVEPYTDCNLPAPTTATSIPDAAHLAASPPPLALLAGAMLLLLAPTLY
Chain of UniProt P53853 (whole entry, looked up): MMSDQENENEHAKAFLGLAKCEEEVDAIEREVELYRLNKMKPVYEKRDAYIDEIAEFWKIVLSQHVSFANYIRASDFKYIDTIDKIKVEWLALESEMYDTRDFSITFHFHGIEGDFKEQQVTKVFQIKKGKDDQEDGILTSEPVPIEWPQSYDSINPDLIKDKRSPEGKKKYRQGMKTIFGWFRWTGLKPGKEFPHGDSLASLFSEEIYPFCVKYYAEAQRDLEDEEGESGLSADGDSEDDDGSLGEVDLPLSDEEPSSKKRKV
Chain of UniProt Q07794 (whole entry, looked up): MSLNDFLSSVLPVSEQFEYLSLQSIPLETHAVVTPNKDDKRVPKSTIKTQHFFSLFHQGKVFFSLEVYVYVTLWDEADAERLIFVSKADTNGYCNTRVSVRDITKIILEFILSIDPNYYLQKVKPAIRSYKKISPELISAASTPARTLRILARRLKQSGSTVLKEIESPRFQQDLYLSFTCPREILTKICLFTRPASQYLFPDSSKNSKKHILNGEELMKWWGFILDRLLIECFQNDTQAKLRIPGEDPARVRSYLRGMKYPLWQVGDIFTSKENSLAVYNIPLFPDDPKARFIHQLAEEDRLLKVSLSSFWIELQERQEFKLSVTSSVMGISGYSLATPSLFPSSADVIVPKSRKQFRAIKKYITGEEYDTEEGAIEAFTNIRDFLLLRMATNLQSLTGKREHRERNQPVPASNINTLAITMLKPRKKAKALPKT

| Molecule | target | test | test system | conditions | Km [µM] |
| --- | --- | --- | --- | --- | --- |
| O=[N+]([O-])c1ccc(OP(=O)(O)O)cc1 | alkaline phosphatase | substrate | Lymnaea acuminata, nervous tissue | 37 °C, no inhibitor | 20.2 |
| CC(=O)SCCNC(=O)CCNC(=O)[C@H](O)C(C)(C)COP(=O)(O)OP(=O)(O)OC[C@H]1O[C@@H](n2cnc3c(N)ncnc32)[C@H](O)[C@@H]1OP(=O)(O)O | VPS75/RTT109 (Saccharomyces cerevisiae, UniProt P53853+Q07794) | – | – | pH 7.5 | 0.3 ± 0.1 |
| CC(=O)OC[C@H](N)C(=O)O | Trichomonas vaginalis cysteine synthase 1 | substrate | – | pH 7.8, 37 °C, with: 3 mM sodium sulphide | 39500 ± 2900 |
| C[C@@H]1O[C@@H](Oc2ccc([N+](=O)[O-])cc2)[C@@H](O)[C@H](O)[C@@H]1O | alpha-L-fucosidase (Paenibacillus sp. 3179) | substrate | – | pH 7.4, 50 °C, rough estimate, not saturated | 1110 ± 750 |
| SGSRP[pS]TP (phospho-Ser; pS = N[C@@H](COP(=O)(O)O)C(=O)O) | CTD nuclear envelope phosphatase 1 (CTDNEP1, Homo sapiens, UniProt O95476) | substrate, MESG-coupled phosphate release | – | 25 °C | 32 ± 6 |
| Nc1ncnc2c1ncn2[C@@H]1O[C@H](COP(=O)(O)OP(=O)(O)OP(=O)(O)O)[C@@H](O)[C@H]1O | Threonine-phosphate decarboxylase (Methanosarcina mazei, UniProt Q8PVB1) | enzyme activity, substrate | – | 25 °C, oxic purification, possibly oxidised, with: L-threonine saturating, MgCl2 5 mM | 48000 ± 2000 |
| AYRHPTGMYY | PIM1 | substrate, coupled enzyme | peptide | pH 7.4, room temperature, with: 1 mM ATP, 20 mM MgCl2 | > 800 |
| COc1ccc(CO)cc1OC | lignin peroxidase | substrate | – | pH 2.5, with: H2O2 0.4 mM | 2000 |
| O=C(O)CCCCCCCCCCCCC(=O)O | Marasmius rotula unspecific peroxygenase | substrate, GC-MS | – | with: H2O2 | 557 ± 295 |
| N=C(N)NCCC[C@H](N)C(=O)Nc1ccc2ccccc2c1 | cathepsin H (Bubalus bubalis lung) | substrate, 2-naphthylamine release | – | pH 6.5, 37 °C | 322 |
| RYRHPTRMYY | PIM1 | substrate, coupled enzyme | peptide | pH 7.4, room temperature, with: 1 mM ATP, 20 mM MgCl2 | 24 ± 2 |
| Nc1ncnc2c1ncn2[C@H]1C[C@H](O)[C@@H](COP(=O)(O)OP(=O)(O)OP(=O)(O)O)O1 | Bacillus phage GA-1 DNA polymerase | TP-primed initiation, substrate | – | 30 °C, with: chimeric TP N-G primer, GA-1 TP-DNA | 10 |
| C/C1=C2/N[C@H]([C@H](CC(N)=O)[C@@]2(C)CCC(=O)NC[C@@H](C)OP(=O)(O)O[C@H]2[C@@H](O)[C@@H](n3cnc4cc(C)c(C)cc43)O[C@@H]2CO)[C@]2(C)N=C(/C(C)=C3N=C(/C=C4N=C1[C@@H](CCC(N)=O)C\4(C)C)[C@@H](CCC(N)=O)[C@]\3(C)CC(N)=O)[C@@H](CCC(N)=O)[C@]2(C)CC(N)=O.[Co] | cobA (Limosilactobacillus reuteri, UniProt Q50EJ2) | enzyme activity, substrate | – | anoxic, Ti(III) citrate reduced, with: ATP | 0.13 ± 0.01 |
| Cc1cc(=O)oc2cc(O[C@@H]3O[C@H](C(=O)O)[C@@H](O)[C@H](O)[C@H]3O)ccc12 | Beta-glucuronidase (uidA, Escherichia coli, UniProt P05804) | enzyme activity, substrate | – | – | 102 |
| HSGTESQAKHCIPEKNHTLQ | Tyrosine-protein phosphatase non-receptor type 22 (PTPN22, Homo sapiens, UniProt Q9Y2R2) | enzyme activity | peptide | 25 nM, pH 6.0, with: DiFMUP | 4.1 ± 0.2 |
| [Na+].[Na+].[Na+].[O]=[V]([O-])([O-])[O-] | Intestinal-type alkaline phosphatase (ALPI, Bos taurus, UniProt P19111) | – | – | 2.28 µM, with: DiFMUP substrate | 0.57 ± 0.09 |
| RYAHPTGMYY | PIM1 | substrate, coupled enzyme | peptide | pH 7.4, room temperature, with: 1 mM ATP, 20 mM MgCl2 | > 600 |
| N=C(N)NCCCC(NC(=O)c1ccccc1)C(=O)Nc1ccc2ccccc2c1 (racemic) | cathepsin H, Bubalus bubalis lung | substrate | – | pH 6.5, 37 °C, racemic DL substrate | 4320 |

Repeated from above:
| Molecule | target | test | test system | conditions | Km [µM] |
| --- | --- | --- | --- | --- | --- |
| CC(=O)SCCNC(=O)CCNC(=O)[C@H](O)C(C)(C)COP(=O)(O)OP(=O)(O)OC[C@H]1O[C@@H](n2cnc3c(N)ncnc32)[C@H](O)[C@@H]1OP(=O)(O)O | VPS75/RTT109 (Saccharomyces cerevisiae, UniProt P53853+Q07794) | – | – | pH 7.5 | 0.3 ± 0.1 |
| CC(=O)OC[C@H](N)C(=O)O | Trichomonas vaginalis cysteine synthase 1 | substrate | – | pH 7.8, 37 °C, with: 3 mM sodium sulphide | 39500 ± 2900 |
| C[C@@H]1O[C@@H](Oc2ccc([N+](=O)[O-])cc2)[C@@H](O)[C@H](O)[C@@H]1O | alpha-L-fucosidase (Paenibacillus sp. 3179) | substrate | – | pH 7.4, 50 °C, rough estimate, not saturated | 1110 ± 750 |
